# Published values of several laboratories.
# Each line is one published result; not all experiments were run side by side. ± marks the error that the study gave.
# Cell line: Vero
SMILES,test,test system,setting,endpoint,value
O[C@]12C=C(c3nccc4c3[nH]c3ccccc34)[C@@H]3CCN(CCCC/C=C\CC1)C[C@@]31C[C@@H]3/C=C\CCCCN3[C@H]12,"cytotoxicity, neutral red",,48 h,IC50,0.975 ± 0.075 µg/mL
CC(C)C[C@H](NC(=O)[C@H](CC(C)C)NC(=O)[C@H](CCCCN)NC(=O)CNC(=O)[C@H](CC(C)C)NC(=O)CNC(=O)[C@H](CO)NC(=O)[C@H](CC(C)C)NC(=O)[C@H](CC(C)C)NC(=O)[C@H](CO)NC(=O)[C@H](CCCCN)NC(=O)[C@H](CC(C)C)NC(=O)[C@H](CCCCN)NC(=O)[C@H](CCCCN)NC(=O)[C@H](CC(C)C)NC(=O)[C@H](CC(C)C)NC(=O)[C@H](CC(C)C)NC(=O)CNC(=O)[C@H](CO)NC(=O)[C@H](Cc1c[nH]c2ccccc12)NC(=O)[C@@H](N)CCCCN)C(=O)O,MTS,,24 h,TC50,15 µM
Cc1cn([C@@H]2O[C@@H](C)[C@H](OCc3ccccc3)[C@@H](OCc3ccccc3)[C@H]2I)c(=O)[nH]c1=O,MTT,DMEM with 10% FBS,72 h,CC50,> 50 µM
CC(C)C[C@H](NC(=O)[C@H](CC(C)C)NC(=O)[C@H](CCCCN)NC(=O)CNC(=O)[C@H](CC(C)C)NC(=O)CNC(=O)[C@H](CO)NC(=O)[C@H](CC(C)C)NC(=O)[C@H](CC(C)C)NC(=O)[C@H](CO)NC(=O)[C@H](CCCCN)NC(=O)[C@H](CC(C)C)NC(=O)[C@H](CCCCN)NC(=O)[C@H](CCCCN)NC(=O)[C@H](C)NC(=O)[C@H](C)NC(=O)[C@H](C)NC(=O)CNC(=O)[C@H](CO)NC(=O)[C@H](Cc1c[nH]c2ccccc12)NC(=O)[C@@H](N)CCCCN)C(=O)O,MTS,,24 h,TC50,> 100 µM
COc1cc(O)c2c(c1)/C=C/C[C@H](O)[C@H](O)C(=O)/C=C\C[C@H](C)OC2=O,"cell growth or viability, resazurin",,,CC50,38.8 µM
CC(C)(C)[Si](C)(C)OC[C@H]1O[C@@H](n2cc(Cl)c(=O)[nH]c2=O)[C@H](I)[C@@H](O[Si](C)(C)C(C)(C)C)[C@@H]1O[Si](C)(C)C(C)(C)C,MTT,DMEM with 10% FBS,72 h,CC50,12.5 µM
CCCCCCNCc1ccc(Oc2ccc(Cl)cc2Cl)c(O)c1,cytotoxicity,,,IC50,4 µg/mL
COC(=O)c1cc2c(=O)n3ccccc3nc2n1Cc1ccccc1,MTT,,"100 µM, 24 (unit not given)",viability,46.9%
Oc1cc(Cn2ccnn2)ccc1Oc1ccc(Cl)cc1Cl,cytotoxicity,,,IC50,1 µg/mL
C[C@@H]1O[C@@H](n2ccc(N)nc2=O)[C@H](I)[C@H](OCc2ccccc2)[C@H]1OCc1ccccc1,MTT,DMEM with 10% FBS,72 h,CC50,> 50 µM
Oc1cc(CNc2ccccc2)ccc1Oc1ccc(Cl)cc1Cl,cytotoxicity,,,IC50,8 µg/mL
CSCC[C@H](NC(=O)[C@@H](NC(C)=O)C(C)C)C(=O)N1CCC[C@H]1C(=O)N[C@@H](Cc1c[nH]c2ccccc12)C(=O)N[C@@H](CC(=O)O)C(=O)N[C@@H](CCC(=O)O)C(=O)N[C@@H](Cc1c[nH]c2ccccc12)C(=O)N[C@@H](CC(C)C)C(=O)N[C@H](C(=O)N[C@@H](CCCCN)C(=O)N[C@@H](CCCNC(=N)N)C(=O)N[C@@H](CCCCN)C(=O)N1CCC[C@H]1C(=O)N[C@@H](CCC(=O)O)C(=O)N[C@@H](CC(C)C)C(=O)N1CCC[C@H]1C(N)=O)[C@@H](C)O,,,"100 µM, overnight",viability,28%
Cc1noc(C)c1S(=O)(=O)N1CCCC2(C1)Nc1cccnc1N=C2NC1CCCC1 (stereo not shown),,,72 (unit not given),CC50,85.2 µM
